Assay results pooled from the literature.
± marks the error that the study gave.
Sequence of UniProt Q00194 (whole entry, looked up): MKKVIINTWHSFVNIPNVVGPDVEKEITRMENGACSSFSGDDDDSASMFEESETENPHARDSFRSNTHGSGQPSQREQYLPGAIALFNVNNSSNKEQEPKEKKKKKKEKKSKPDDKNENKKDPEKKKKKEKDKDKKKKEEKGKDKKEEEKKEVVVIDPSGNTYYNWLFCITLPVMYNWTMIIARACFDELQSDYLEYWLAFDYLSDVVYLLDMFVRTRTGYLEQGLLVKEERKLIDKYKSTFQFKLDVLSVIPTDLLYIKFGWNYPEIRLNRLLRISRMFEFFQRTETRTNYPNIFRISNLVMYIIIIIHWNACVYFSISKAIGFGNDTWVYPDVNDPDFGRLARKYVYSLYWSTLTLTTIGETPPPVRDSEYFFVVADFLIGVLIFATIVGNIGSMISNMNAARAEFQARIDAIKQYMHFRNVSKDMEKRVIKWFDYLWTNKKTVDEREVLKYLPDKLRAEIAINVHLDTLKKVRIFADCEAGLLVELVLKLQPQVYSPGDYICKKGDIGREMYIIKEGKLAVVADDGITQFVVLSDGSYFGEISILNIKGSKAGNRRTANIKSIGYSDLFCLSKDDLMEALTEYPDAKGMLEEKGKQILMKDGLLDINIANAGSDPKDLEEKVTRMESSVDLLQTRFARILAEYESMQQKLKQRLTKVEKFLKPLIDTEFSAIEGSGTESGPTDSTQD
Sequence of UniProt Q16539 (whole entry, looked up): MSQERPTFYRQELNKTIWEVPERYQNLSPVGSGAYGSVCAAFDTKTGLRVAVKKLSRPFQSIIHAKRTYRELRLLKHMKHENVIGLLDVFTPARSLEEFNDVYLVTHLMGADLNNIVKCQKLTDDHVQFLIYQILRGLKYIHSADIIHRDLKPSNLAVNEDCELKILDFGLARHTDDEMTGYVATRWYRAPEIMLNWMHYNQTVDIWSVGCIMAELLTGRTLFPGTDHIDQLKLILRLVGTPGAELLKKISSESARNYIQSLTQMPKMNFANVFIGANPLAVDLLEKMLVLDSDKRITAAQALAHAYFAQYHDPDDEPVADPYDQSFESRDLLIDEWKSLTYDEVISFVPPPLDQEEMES
Sequence of UniProt Q6TCG2 (whole entry, looked up): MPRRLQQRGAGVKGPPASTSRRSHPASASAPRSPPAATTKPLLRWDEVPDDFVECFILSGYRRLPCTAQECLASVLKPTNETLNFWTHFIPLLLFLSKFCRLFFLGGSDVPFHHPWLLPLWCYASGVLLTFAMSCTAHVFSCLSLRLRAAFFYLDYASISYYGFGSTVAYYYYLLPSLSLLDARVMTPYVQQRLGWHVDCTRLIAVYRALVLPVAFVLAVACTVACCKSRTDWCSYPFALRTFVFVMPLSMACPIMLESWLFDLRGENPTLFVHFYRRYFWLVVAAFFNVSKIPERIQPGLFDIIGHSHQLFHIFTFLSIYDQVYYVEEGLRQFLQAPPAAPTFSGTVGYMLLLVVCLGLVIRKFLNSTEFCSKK
Sequence of UniProt P23141 (whole entry, looked up): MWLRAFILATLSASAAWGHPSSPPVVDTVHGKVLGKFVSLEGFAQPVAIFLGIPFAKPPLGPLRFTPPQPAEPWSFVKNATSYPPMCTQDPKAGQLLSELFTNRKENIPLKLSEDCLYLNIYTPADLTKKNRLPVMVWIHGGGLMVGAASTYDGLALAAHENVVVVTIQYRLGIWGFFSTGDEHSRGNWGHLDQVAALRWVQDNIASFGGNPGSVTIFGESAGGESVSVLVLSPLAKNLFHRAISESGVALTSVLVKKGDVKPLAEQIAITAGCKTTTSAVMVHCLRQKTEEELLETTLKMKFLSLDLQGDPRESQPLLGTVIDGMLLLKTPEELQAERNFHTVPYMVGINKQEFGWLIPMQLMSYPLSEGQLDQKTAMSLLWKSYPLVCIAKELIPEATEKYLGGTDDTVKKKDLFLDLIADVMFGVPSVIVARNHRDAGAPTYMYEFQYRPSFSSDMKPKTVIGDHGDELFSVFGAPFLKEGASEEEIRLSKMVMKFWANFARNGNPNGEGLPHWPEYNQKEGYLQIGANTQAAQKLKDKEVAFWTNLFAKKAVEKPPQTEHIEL

NC(=O)C1CCNC(=O)C(CCCNC(=O)c2cnccn2)NC(=O)C(Cc2ccco2)NC(=O)C(CC=Cc2ccccc2)NC(=O)C=CC(=O)N1 (stereo not drawn) has an enrichment factor of 0.84 (MAPK14 (Homo sapiens, UniProt Q16539); DNA-templated library selection; one selection round).
With C=C[C@]12CCC(=O)C=C1CC[C@H]1[C@@H]3CC[C@H](C(C)=O)[C@@]3(C)CC[C@@H]12 the PKA activation was 57.9 % increase (Membrane progesterone receptor epsilon (Paqr9, Mus musculus, UniProt Q6TCG2); MDA-MB-231, GFP-tagged; 10 nM, 20 min; relative to: control).
CC1=C(/C=C/C(C)=C/C=C/C(C)=C/C=O)C(C)(C)CCC1: “association constant K2” 4e+10 M^-n (CNGA1 (Bos taurus, UniProt Q00194); channel binding, allosteric model fit).
COc1ccc(NC(C)=O)c(C)n1 gave a specific activity of 1.1 pmol/min/µg (CES1 (Homo sapiens, UniProt P23141); substrate; 50 µM, pH 8, 37 °C, enzyme purity 25%).
For CC(=O)NCCN(CCC(=O)NCCN(CCC(=O)NCCN(CCC(=O)NCCC(N)=O)C(=O)[C@@H](N)Cc1ccccc1)C(=O)[C@@H](N)CCCNC(=N)N)C(=O)[C@@H](N)CCCNC(=N)N, “binding free energy ΔG°” read -8.8 ± 0.335 kcal/mol (HIV-1 TAR RNA; 25 °C).
For CC[C@H](C)[C@H](NC(=O)[C@H](CCC(=O)O)NC(=O)[C@H](CO)NC(=O)[C@@H](NC(=O)[C@@H](N)CO)C(C)C)C(=O)N[C@@H](CCC(N)=O)C(=O)N[C@@H](CC(C)C)C(=O)N[C@@H](CCSC)C(=O)N[C@@H](Cc1c[nH]cn1)C(=O)N[C@@H](CC(N)=O)C(=O)N[C@@H](CC(C)C)C(=O)NCC(=O)N[C@@H](CCCCN)C(=O)N[C@@H](Cc1c[nH]cn1)C(=O)N[C@@H](CC(C)C)C(=O)N[C@@H](CC(N)=O)C(=O)N[C@@H](CO)C(=O)N[C@@H](CCSC)C(=O)N[C@@H](CCC(=O)O)C(=O)N[C@@H](CCCNC(=N)N)C(=O)N[C@H](C(=O)N[C@@H](CCC(=O)O)C(=O)N[C@@H](Cc1c[nH]c2ccccc12)C(=O)N[C@@H](CC(C)C)C(=O)N[C@@H](CCCNC(=N)N)C(=O)N[C@@H](CCCCN)C(=O)N[C@@H](CCCCN)C(=O)N[C@@H](CC(C)C)C(=O)N[C@@H](CCC(N)=O)C(=O)N[C@@H](CC(=O)O)C(=O)N[C@H](C(=O)N[C@@H](Cc1c[nH]cn1)C(=O)N[C@@H](CC(N)=O)C(=O)N[C@@H](Cc1ccccc1)C(=O)N[C@@H](CCCCNC(=O)c1ccc2c(c1)C1(OC2=O)c2ccc(N(C)C)cc2Oc2cc(N(C)C)ccc21)C(N)=O)C(C)C)C(C)C, the kon was 440000 ± 80000 M⁻¹ s⁻¹ (PTH1R (Homo sapiens, UniProt Q03431); binding, NanoBRET; HEK293 stably expressing receptor; room temperature, 0.02% sodium azide, with: 5 µM coelenterazine h).
With O=c1c2ccccc2nc2n1CCC2O (stereo not drawn) the koff was 0.00194 s⁻¹ (Alpha-mannosidase (Canavalia ensiformis, UniProt C0HJB3); binding, surface plasmon resonance; 25 °C).
CC(=O)N[C@@H](Cc1ccc(O)cc1)C(=O)N[C@@H](CCCNC(=N)NC(=O)NCCCCN)C(=O)N[C@@H](CC(C)C)C(=O)N[C@@H](CCCNC(=N)N)C(=O)N[C@@H](Cc1ccc(O)cc1)C(N)=O gave an intrinsic activity of 0.62 (NPY4R (Homo sapiens, UniProt P50391); β-arrestin-1 recruitment, agonist; HEK293T; concentration not given, unit not given; relative to: 1 µM human pancreatic polypeptide).
CC[C@@H](N)c1ccc(Cl)c(Oc2ccccc2)c1F — result for IC50: “inactive” (Genome polyprotein, NS3 protease (Hepatitis C virus genotype 1b, UniProt P26663); protease activity, inhibitor).
[3H]C([3H])([3H])c1cnccc1CN1C[C@@H](c2cc(F)c(F)c(F)c2)CC1=O: “specific binding ratio” about 105 fold (SV2A (Homo sapiens, UniProt Q7L0J3); radioligand binding; human control, frontal cortex; relative to: P1 fraction over homogenate).
For CC(=O)NCCN(CC(=O)NCCN(CC(=O)NCCN(CC(=O)NCCC(N)=O)C(=O)[C@@H](N)Cc1ccccc1)C(=O)[C@@H](N)CCCNC(=N)N)C(=O)[C@@H](N)Cc1ccccc1, the non-electrostatic ΔG° was -7.266 ± 0.0239 kcal/mol (HIV-1 TAR RNA; extrapolated to 1 M KCl).
C=C(C)C(=O)Nc1ccc(-c2c(-c3ccc(Oc4cccc(C)n4)cc3)c3c(N)ncnc3n2C)cc1: “fold potency loss” 40 fold (FGFR2 (Homo sapiens, UniProt P21802); kinase activity, Caliper; relative to: FGFR2 over 5).

Excerpt of the above:
With O=c1c2ccccc2nc2n1CCC2O (stereo not drawn) the koff was 0.00194 s⁻¹ (Alpha-mannosidase (Canavalia ensiformis, UniProt C0HJB3); binding, surface plasmon resonance; 25 °C).
